Results from different studies.
Numbered parts are unrelated; each lists some results of a single study.

Series 1
Target: Phosphate system positive regulatory protein PHO4, full length, GST-tagged (PHO4, Saccharomyces cerevisiae, UniProt P07270, residues 1-312)
Technique: competition protein-binding microarray
Molecule type: double-stranded DNA, one strand shown
Sample: in vitro
Concentration: 2 µM
Notes: whole 60-bp probe, lowest competitor level
With: Cbf1 competitor, 0.05 µM
Reading: higher = stronger binding
Constant ends, left off below: … GTCTTGATTCGCTTGACGCTGCTG
Residues (chain): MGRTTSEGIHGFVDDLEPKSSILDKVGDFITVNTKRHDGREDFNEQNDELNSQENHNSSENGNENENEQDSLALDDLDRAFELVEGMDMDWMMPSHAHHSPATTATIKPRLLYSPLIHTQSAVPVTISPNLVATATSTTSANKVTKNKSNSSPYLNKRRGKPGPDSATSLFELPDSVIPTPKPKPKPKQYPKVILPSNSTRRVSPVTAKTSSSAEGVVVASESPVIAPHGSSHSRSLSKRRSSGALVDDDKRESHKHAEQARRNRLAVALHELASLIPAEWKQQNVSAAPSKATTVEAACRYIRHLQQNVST
| Oligonucleotide | fluorescence intensity [a.u.] |
| --- | --- |
| TGCGCAACAACTTGGTGTGTGGGTGTATGTCTAGAA | 6050 |
| TGTCAAGCCAGACTGGACGTGTGGATGGGGGGCAAA | 4320 |
| GACAACGACTTTGCAGACGTGCCGATTCCACCCATC | 5850 |
| CGTCCTAGTGATTGCAGTGTGGGTGCCATGAGGAAG | 8210 |
| GACAAGCATTTCGACCACGTTTTGTACAAGGAATCC | 14700 |
| TGTTTGGCTGGTGTGTACGTGGTGAAAACCAAGAAT | 7550 |
| AACCTTACAAAAAATCACATGACAACCTAACAAAAT | 6740 |
| AATCTACGGTTCCAACACGCACACTTTCATCCTAGA | 8150 |
| CTTCTGTAAATTTGTCACCAGACTTGACGCGCCCCG | 3330 |
| GCTGGCCTCGCCCGTCACAAAAGAAATGAGCTCACT | 2600 |
| AAGTGCAGCCGATTGGGCGTGCGATTCACCCACTCA | 5920 |
| CGTCCTAGTGATTGTCACATCACTTCCATGAGGAAG | 4820 |
| GGATGAAGTAGGAAACTCGTGAATATATAAACCCCG | 5000 |
| TAAGATATACCTCACCACGTGAGATTATAGAAGCAA | 13600 |
| TGCGCAACAACTTGTAGCGTGGGTGTATGTCTAGAA | 6600 |
| GTCTTGTCTCATTGACACGTGTTTTTCCCCACTTCA | 15300 |
| GACCAGAAACGTCGTCATGTGGCCAAAGTCGGGCCA | 6650 |
| CATTATGGTAATTAGCACGTGGTCGATGGGGATTGT | 18300 |
| GTAACGAAGCTTACCAGCATGATAATACCGTAAATC | 3820 |
| CATACCCAACCTTCGCACGTGTTTTAAGATATTTGT | 21900 |
| GTCTTGTCTCATTGTGTTGTGGGTGTCCCCACTTCA | 5110 |

Series 2
Target: RNA binding protein fox-1 homolog 2, RRM domain, GST-SBP tag (RBFOX2, Homo sapiens, UniProt O43251-10, residues 100-194)
Technique: RNA Bind-n-Seq
Molecule type: RNA
Sample: in vitro
Concentration: 365 nM
Notes: natural RNA segment, single round, ends assumed
Baseline: no-protein control
Reading: higher = stronger binding
Constant ends, left off below: GGGAGUUCUACAGUCCGACGAUC … UGGAAUUCUCGGGUGCCAA
Residues (chain): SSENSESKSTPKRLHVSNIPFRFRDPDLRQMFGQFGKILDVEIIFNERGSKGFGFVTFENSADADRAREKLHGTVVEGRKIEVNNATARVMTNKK
| Oligonucleotide | RBNS enrichment (R) |
| --- | --- |
| GUAAAUCACUGAACCUUUUUUUCAAGAAGGACAAGAAUUUUGGAGUCUGCUAUUAAUGGACCAUAUUUAUUACAGUUUUUAAAUUGUACAAUCUCUGUAUUAUAGCUAUU | 0.398 |
| CAUUUCUGAUGUUGUCUGCCCAUCAGGCAAACAUUCCCUUUUAAAUGCUUAUAUACACAUUCCUUAGGUUGGAAGAAUAUCCACGGACAAUGCACUUAUUUUUAAACGAG | 0.329 |
| GCCAAGCUUCAUCUUACUGAAAAAGACUCAGACCCUCAGCAAAGAACAAUGGAGAGAAAGUAGGUGAGUACUUUGAGUGUUGGGCUUUGGGCCAAAAAUGCAGACUCAGG | 0.64 |
| AAGUUGAAAAUGGGACCACAGGGGCACAGGGCUACUGACCCUCACAGGGCAUGCCAGCGUUAACACCACUUUGAGAGACCAAUGGCAAGAAAUGCUGUCUCUUGUGCAUU | 0.544 |
| AUUCCUGAGAAAUGUCCAACUGCUAGGAGUCUGACCAAAUUACAGAUGUGUGCCAUACUCUGGUUCUUAGAGUUCCAGAGCUCCUUCAUUGGUUUUAAUAAACUCUAAGG | 0.505 |
| UGGGGAGGGGAAACUUGUGAAUGUAACUUGCCUGUGCCGUGUGACGGUCACGUGGGCCUGGUCUUUUGUGUGUGAGGCCCUUGACCGUGUGGCCUCUGCCUGGCUGUUUG | 3.76 |
| UGGUGCCACAAAAGUAUUUCUGCUUUUUAGCCCUUUCUCUGCACCUCAACAAGAGAUAAAAAAAAACUGUUGCUCAUACCCGUAUCUUACUGGGUUUGUUUUUAAUAUUA | 0.438 |
| UGAAAGUGUUACUCAGAAUUGUCAUAGUUUUUUUCCCCCCAUCUUUGUGCUAAAACAUGGAAAAUUGUCACUGUGUUGAUGAGGUUUCCCCCAUUCUGCUGCCUUUGGGA | 0.586 |
| ACCUCAAGCUUUACUGACUUCAAUUAUCUGUUUUUAAAGACGUAGAAGAUUUAUUUAAUUUGAUAUGUUCUUGUACUGCAUUUUGAUCAGUUGAGCUUUUAAAAUAUUAU | 0.438 |
| AAGCUCCUCUGGUUUGUCUGGUAGGUGUAAUUACGCCUGGCGAGCCCUGGGCCCGGGUUGCUAAGCAUUAAAAGCUUGCCUUUCUCCCUGCCCUUGCUCUGUUUCUGCUC | 0.327 |
| UGCAUGCACAUGCUAUGUAUUGGGUCCCUCCAAGGAUGAACCCUCUCUUUGGCUUAGAAGGCACUCAGAGAAUAUGUGUUAUUCGUGCUCACGGAAAGUUUCUUACUCAU | 4.32 |
| UUUUUCAAUUGACAGUUGCAGAAUUGUGGAGUGUUUUUACAUUGAUCUUUUGCUAAUGCAGUUAGCAGUAUGUUUUGCAUGUAUGAAUUAAUAAAUCCUUGAAUCAUACA | 0.537 |

Series 3
Target: Histone acetyltransferase KAT6A, winged helix 1, GST fusion (KAT6A, Homo sapiens, UniProt Q92794, residues 1-85)
Technique: protein binding microarray
Molecule type: double-stranded DNA, one strand shown
Sample: in vitro
Concentration: not given
Notes: 8-mer, flanks averaged, mean of 2 arrays, mostly near background
Baseline: not given
Reading: higher = stronger binding
Target sequence (chain): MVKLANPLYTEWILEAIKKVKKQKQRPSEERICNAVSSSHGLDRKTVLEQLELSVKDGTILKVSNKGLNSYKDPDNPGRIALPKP
| Oligonucleotide | E-score |
| --- | --- |
| AAGATCCC | -0.12 |
| ACCGACAA | 0.0287 |
| GATTGGGA | -0.305 |
| CAACAAGC | -0.0962 |
| TAATCGTA | -0.124 |
| GGGCGCGA | 0.293 |
| GCCGCCTA | 0.343 |
| ACGCGAGT | 0.185 |
| TCCACGAA | 0.0694 |
| ATAATGAT | -0.115 |
| TTATTGAA | -0.338 |
| AGCCCATG | -0.149 |
| AGATACGG | 0.153 |
| CGATTGTC | -0.0145 |
| GACAAACA | -0.127 |
| ACAATCTA | -0.103 |
| CAGCACTC | -0.122 |
| ACCCGGGA | 0.181 |
| CGGACGAA | 0.18 |

Series 4
Target: Sal-like protein 4, full length isoform A (SALL4, Homo sapiens, UniProt Q9UJQ4, residues 1-1053)
UniProt Q9UJQ4, sequence (whole entry, looked up): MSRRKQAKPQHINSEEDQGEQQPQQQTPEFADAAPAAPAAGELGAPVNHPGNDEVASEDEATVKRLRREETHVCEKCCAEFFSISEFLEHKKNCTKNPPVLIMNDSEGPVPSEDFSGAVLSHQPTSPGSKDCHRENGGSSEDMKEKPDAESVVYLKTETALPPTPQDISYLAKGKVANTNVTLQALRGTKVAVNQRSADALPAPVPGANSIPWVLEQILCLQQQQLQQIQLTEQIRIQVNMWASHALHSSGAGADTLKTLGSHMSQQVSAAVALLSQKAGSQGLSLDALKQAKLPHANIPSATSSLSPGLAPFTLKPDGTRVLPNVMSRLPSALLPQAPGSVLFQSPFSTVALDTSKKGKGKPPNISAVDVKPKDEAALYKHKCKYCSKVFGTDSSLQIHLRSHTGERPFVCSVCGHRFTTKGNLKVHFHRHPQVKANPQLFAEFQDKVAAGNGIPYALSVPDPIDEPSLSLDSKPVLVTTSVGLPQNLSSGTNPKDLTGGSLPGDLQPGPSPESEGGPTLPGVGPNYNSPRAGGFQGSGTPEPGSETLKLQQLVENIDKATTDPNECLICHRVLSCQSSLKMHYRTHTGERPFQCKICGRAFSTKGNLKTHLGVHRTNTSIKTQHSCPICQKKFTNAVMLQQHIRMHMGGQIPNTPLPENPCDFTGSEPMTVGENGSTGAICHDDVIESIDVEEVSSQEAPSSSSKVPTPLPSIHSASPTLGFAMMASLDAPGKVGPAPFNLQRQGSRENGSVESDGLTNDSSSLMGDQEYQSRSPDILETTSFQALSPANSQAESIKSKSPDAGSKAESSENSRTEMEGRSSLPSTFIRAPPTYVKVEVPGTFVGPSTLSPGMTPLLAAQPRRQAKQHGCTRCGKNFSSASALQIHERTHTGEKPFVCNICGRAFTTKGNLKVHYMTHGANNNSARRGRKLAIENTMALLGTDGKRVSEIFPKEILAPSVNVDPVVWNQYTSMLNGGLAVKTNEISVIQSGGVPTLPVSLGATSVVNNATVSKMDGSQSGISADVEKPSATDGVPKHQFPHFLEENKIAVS
Technique: universal PBM
Molecule type: double-stranded DNA, one strand shown
Sample: in vitro
Concentration: 600 nM
Notes: 8-mer, flanks averaged, mean of replicates
Reading: higher = stronger binding
| Oligonucleotide | E-score |
| --- | --- |
| AAGCTCGC | -0.291 |
| AACCTAGA | 0.0147 |
| CAAAGCGC | -0.146 |
| AGGTCGCC | -0.24 |
| AAGATCCG | -0.171 |
| ACAAAAAT | 0.382 |
| GACTTCTC | -0.0623 |
| ACGCGTAG | -0.182 |
| GCAATTCA | 0.0964 |
| GAGCCAAA | -0.0789 |
| ACACGGTG | -0.123 |
| CGGAGCGC | -0.323 |
| ATGTAATG | 0.242 |
| AGTCCCAC | -0.212 |
| AGAGCACT | -0.0174 |
| TTCCTCAA | 0.0661 |
| AACACTAT | 0.321 |
| AGGTTGCA | 0.08 |
| GAGGGCCA | -0.175 |
| TACCCAAA | 0.035 |
| AGGCTGAA | -0.00144 |
| ACGAACGG | 0.00316 |
| AGCCAACT | -0.136 |
| AGCCCCCC | -0.364 |
| CTCCCCCA | -0.17 |

Series 5
Target: Interferon regulatory factor 3, full length, phosphomimetic (IRF3, Homo sapiens, UniProt Q14653, residues 1-427, S386D/S396D/S398D/S402D/T404D/S405D)
Technique: protein-binding microarray
Molecule type: double-stranded DNA, one strand shown
Sample: in vitro
Concentration: 2540 nM top
Notes: 60-bp whole probe
With: salmon DNA 0.4 mg/ml
Baseline: random background probes
Reading: higher = stronger binding
Constant ends, left off below: GCCTAGCAC … GTCTTGATTCGCTTGACGCTGCTG
Target sequence (chain): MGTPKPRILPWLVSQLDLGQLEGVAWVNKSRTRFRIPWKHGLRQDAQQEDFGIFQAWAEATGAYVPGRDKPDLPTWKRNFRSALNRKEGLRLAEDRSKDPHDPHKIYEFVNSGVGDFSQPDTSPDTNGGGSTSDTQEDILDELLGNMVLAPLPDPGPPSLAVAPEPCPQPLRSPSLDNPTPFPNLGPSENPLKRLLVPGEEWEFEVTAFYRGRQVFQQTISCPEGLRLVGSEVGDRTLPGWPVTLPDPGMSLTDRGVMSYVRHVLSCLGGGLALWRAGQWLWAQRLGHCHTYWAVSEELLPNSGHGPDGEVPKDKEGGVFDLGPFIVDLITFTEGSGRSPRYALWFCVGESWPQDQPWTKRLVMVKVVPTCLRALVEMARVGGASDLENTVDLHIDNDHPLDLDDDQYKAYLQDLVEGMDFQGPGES
| Oligonucleotide | fitted relative affinity [z-score] |
| --- | --- |
| TTAGGTTTTGACTTTCGGTTAGTGCTA | 1.66 |
| GACGATCTCAGTTCCGAGACGTGCTAG | 1.04 |
| GACGGACTGGGTATCGTGACGTGCTAG | -0.523 |
| TTAGATTTCCTTCTCCTTTAGTGCTAG | 6.04 |
| AAAAAAATCATTTTCTCTGTGTGCTAG | 1.51 |
| GACGGTCTGGGACTGGGGACGTGCTAG | -0.82 |
| CTGCTTGAAACTCTTACCCCGTGCTAG | -0.0825 |
| TCAGGACTGGGTCTCGGTTAGTGCTAG | -0.555 |
| TTAGAACTGAGAATGGATTAGTGCTAG | -0.398 |
| TCACATTTTAGTTTTCAACTGTGCTAG | 2.16 |
| GACGAACTCAGTATCGAGACGTGCTAG | 0.374 |
| CGCTCCCTTTATTCCACATTGTGCTAG | 2.55 |
| GACCGTTTCGACTATCGGGACGTGCTA | 3.33 |
| TTAGGACTGGGGTTTCGGTTTGTGCTA | 3.69 |
| GACGATTTCAGTCTCCAGACGTGCTAG | 2.61 |
| TTAGGTCTCCCTCTCCTTTAGTGCTAG | 2.42 |
| TTAGGACTGGGAACTGGGTTAGTGCTA | -0.772 |
| TCATGTATGAGCCTCTGACTGTGCTAG | -0.658 |
| ATCTTTTTCCCTATTATATAGTGCTAG | 3.82 |
| GGATGAGCAAGGGGGCCTCGGTGCTAG | -1.01 |
| TTAGATATCGGGTATCGATTTGTGCTA | 0.839 |

Some of these lines once more (series 4):
| Oligonucleotide | E-score |
| --- | --- |
| AACACTAT | 0.321 |
| AAGCTCGC | -0.291 |
| ACACGGTG | -0.123 |
| ACGCGTAG | -0.182 |
| GAGGGCCA | -0.175 |
| CGGAGCGC | -0.323 |
| TACCCAAA | 0.035 |
